# Experimental data gathered from unrelated publications.
# Compare with care: the assays were run in different laboratories. ± gives the spread as reported.
SMILES,test,test system,conditions,how to read,quantity,result
C[C@@H](O)[C@H](NC(=O)c1ccc(C#Cc2ccccc2)cc1)C(=O)NCC1(C)NC(=O)NC1=O (stereo partly drawn),,aqueous buffer,pH 7.4,,solubility,230 µg/mL
Clc1ccc([C@H]2COC[C@@H](c3ccc(-c4ccccn4)cc3)N2)cc1,"shake-flask, LC-HRMS",aqueous buffer,"16 h, pH 6.8",,solubility,< 4 µM
CN(CCCNC(=O)c1cccc(C(=O)O)c1)CCCNC(=O)c1cc(NC(=O)c2cc(NC(=O)c3cc(NC(=O)c4cc(NC(=O)C[C@H](CNC(=O)c5cc(NC(=O)c6cc(NC(=O)c7nc(NC(=O)c8nccn8C)cn7C)cn6C)cn5C)NC(=O)c5ccccc5)cn4C)cn3C)cn2C)cn1C,HPLC after centrifugation,0.1% DMSO in PBS,"2 h, 25 °C, added: 50 mM hydroxypropyl-β-cyclodextrin",reference: without cyclodextrin,solubility increase,> 50 fold
Clc1cc(Cl)cc([C@@H]2COC[C@]3(CCOc4ccccc43)N2)c1,"shake-flask, LC-HRMS",aqueous buffer,"16 h, pH 6.8",,solubility,< 4 µM
CC1(CNC(=O)[C@H](CN)NC(=O)c2ccc(-c3ccccc3)cc2)NC(=O)NC1=O (stereo partly drawn),,aqueous buffer,pH 7.4,,solubility,3260 µg/mL
COC(=O)c1ccc([C@@H]2COC[C@H](c3ccc(Cl)cc3)N2)cc1,"shake-flask, LC-HRMS",aqueous buffer,"16 h, pH 6.8",,solubility,< 4 µM
CC1(CNC(=O)[C@H](CN)NC(=O)c2ccc(-c3ccc(Br)cc3)cc2)NC(=O)NC1=O (stereo partly drawn),,aqueous buffer,pH 7.4,,solubility,198 µg/mL
CN(C)C/C=C/C(=O)Nc1cc2c(Nc3ccc(F)c(Cl)c3)ncnc2cc1O[C@H]1CCOC1,,water,"24 h, added: SBE-β-CD 200 mM",reference: with over without SBE-β-CD,solubility enhancement,~37 fold
O=C(Nc1ccc(OC(F)(F)F)cc1)N[C@H]1CC[C@H](Oc2ccc(C(=O)O)cc2)CC1,,deionised water,"5 min, pH 6.6, 37 °C, non-sink dissolution",,solubility,0.364 ± 0.0427 µg/mL
COc1ccc(NC(=O)CSc2nnnn2C)cc1,,aqueous buffer,pH 7.4,,solubility,22.2 µg/mL
C[C@H]1OC[C@@H](c2ccc(-c3ccccn3)cc2)N[C@@H]1c1ccc(F)cc1Cl,"shake-flask, LC-HRMS",aqueous buffer,"16 h, pH 6.8",,solubility,< 4 µM
Nc1nc2c(ncn2COCCO)c(=O)[nH]1,shake-flask,methanol-ethanol mixture,"298.2 K, mass fraction 0.4",,solubility,520 µg/mL

# For quick reference, copied from above:
SMILES,test,test system,conditions,how to read,quantity,result
CC1(CNC(=O)[C@H](CN)NC(=O)c2ccc(-c3ccc(Br)cc3)cc2)NC(=O)NC1=O (stereo partly drawn),,aqueous buffer,pH 7.4,,solubility,198 µg/mL
CN(C)C/C=C/C(=O)Nc1cc2c(Nc3ccc(F)c(Cl)c3)ncnc2cc1O[C@H]1CCOC1,,water,"24 h, added: SBE-β-CD 200 mM",reference: with over without SBE-β-CD,solubility enhancement,~37 fold
